# Measured values gathered from unrelated publications.
# Each numbered part is a random draw from the data of one study; scales do not carry over between parts. Substitutions count along the parent as printed.

# Set 1
# Target: Histone acetyltransferase KAT6A, winged helix 1, GST fusion (KAT6A, Homo sapiens, UniProt Q92794, residues 1-85)
# Technique: protein binding microarray
# Molecule type: double-stranded DNA, one strand shown
# Sample: in vitro
# Tested at: not given
# Setting: 8-mer, flanks averaged, mean of 2 arrays, mostly near background
# Relative to: not given
# Direction: higher = stronger binding
# Target sequence (chain): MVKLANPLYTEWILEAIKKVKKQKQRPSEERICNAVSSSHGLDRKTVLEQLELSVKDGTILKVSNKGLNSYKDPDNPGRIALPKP
Oligonucleotide,E-score
AAAATCCC,0.00742
CGAATCTA,-0.0624
GTCTCCTA,-0.269
CTGATGAC,0.00958
GGTCTGAA,-0.146
GGTGTTCA,-0.0542
TGGCGCCA,-0.0327
GGCGATAC,0.17
CAGCAGAA,-0.027
CGGTTCAC,-0.0142
AGAGAGAG,-0.272
CCAGTTCA,0.0236
GTCAACGA,-0.166

# Set 2
# Target: ABI1, truncated, D143A, DHFR fusion (Arabidopsis thaliana)
# Technique: DHFR PCA, deep sequencing
# Sample: yeast
# Setting: methotrexate growth selection, single substitutions
# Together with: (+)-ABA 0.0091 µM
# Relative to: wild-type fitted maximum
# Direction: higher = stronger binding
# Starting sequence: PYL1, truncated, DHFR fusion (Arabidopsis thaliana); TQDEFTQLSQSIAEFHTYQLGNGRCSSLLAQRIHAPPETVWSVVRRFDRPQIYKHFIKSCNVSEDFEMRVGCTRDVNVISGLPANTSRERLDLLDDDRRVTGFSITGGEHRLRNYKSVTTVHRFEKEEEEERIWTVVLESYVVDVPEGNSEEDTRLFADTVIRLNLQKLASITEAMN
Change,relative binding score [%]
R113M,15.7
L166V,0.696
R99M,94.4
T39D,5.19
R155V,5.37
Q19N,32.8
I33P,4.22
L91N,9.12
G108E,-5.88
F124D,16.2
E127D,38.1
N149F,14.6
Y53R,-2.48
S171M,36.7
V145N,-0.136

# Set 3
# Target: CCNF, cyclin fold, Cln2 fusion (human)
# Technique: yeast growth competition, sequencing
# Sample: yeast
# Setting: weak parent motif
# Relative to: not given
# Direction: higher = stronger binding
# Starting sequence: PKN2 docking peptide (human); VSAVQKLDFSDTM
Change,normalised enrichment score
VSAVQKLDFSDTV [M13V],0.933
VSAVQKKDFSDTM [L7K],0.263
VSAVQKLDFSFTM [D11F],0.843
VSAVQWLDFSDTM [K6W],0.247
VSAVQKLDLSDTM [F9L],0.0154
TSAVQKLDFSDTM [V1T],0.339
VSAVQKLDFSCTM [D11C],1.93
VSAVQKVDFSDTM [L7V],-0.353
VSAVQKNDFSDTM [L7N],-0.00438

# Further values, each from its own experiment
Substance,target,assay,system,conditions,scale,measurement,result
"PhoQ, residues 284 288 289 292 302 303 SLANIV","PhoP, residues 12 14 15 18 19 LHSVQ (Escherichia coli, UniProt P23836)","Sort-seq, measured: YFP reporter",E. coli,"PhoQ-PhoP variant library, together with: 10 µM Mg2+","relative to: high Mg2+ state, higher = stronger signaling",fold induction,16.3
